Assay results pooled from the literature.
Compare with care: the assays were run in different laboratories. Values joined by “and” are separate records of one study, mostly repeats; a detail may differ. Numbers after ± are the reported error. Converted amounts (≈) assume the structure as drawn.
UniProt P05177, sequence (whole entry, looked up): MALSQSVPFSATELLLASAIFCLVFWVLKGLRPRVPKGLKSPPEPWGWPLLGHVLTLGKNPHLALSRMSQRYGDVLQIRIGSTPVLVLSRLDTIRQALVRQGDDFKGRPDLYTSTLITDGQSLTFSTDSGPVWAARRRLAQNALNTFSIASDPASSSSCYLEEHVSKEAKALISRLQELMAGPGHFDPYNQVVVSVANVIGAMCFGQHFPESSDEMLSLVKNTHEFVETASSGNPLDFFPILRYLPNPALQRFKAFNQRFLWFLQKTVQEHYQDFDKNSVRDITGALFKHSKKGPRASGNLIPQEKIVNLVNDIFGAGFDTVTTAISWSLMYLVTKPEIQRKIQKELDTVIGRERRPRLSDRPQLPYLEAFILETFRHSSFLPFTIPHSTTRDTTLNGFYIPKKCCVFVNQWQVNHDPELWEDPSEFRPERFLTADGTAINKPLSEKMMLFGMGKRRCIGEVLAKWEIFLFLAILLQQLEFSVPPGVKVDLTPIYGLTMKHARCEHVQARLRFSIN

Under “log k protonation constant”, `Oc1ccc2c3c1O[C@H]1[C@@H](O)CC[C@H]4[C@@H](C2)N(CC2CCC2)CC[C@@]341` is recorded as 9.37 (phenolate site).
For `C[C@H]1[C@@H](OCc2cn(-c3cc4ccc(O)cc4oc3=O)nn2)O[C@@H]2O[C@@]3(C)CC[C@H]4[C@H](C)CC[C@@H]1[C@@]24OO3`, “uptake into parasites” read 28.2 ± 2 % stained cells (Plasmodium berghei; flow cytometry; infected mouse blood; 3 µM, 1 h).
`Cc1nc2cccc(OCC(C)(C)C(=O)NC(C)C)c2c(N)c1C(=O)[O-].[Na+]` has a revertant colonies of 24 ± 4 colonies/plate (Escherichia coli; reverse mutation, preincubation; WP2 uvrA; 0.13 mg/plate, without S9).
With `Cc1cc(-c2ccc3ccccc3c2)nnc1NCCN1CCN(C)CC1` the remaining compound was 81% (Cytochrome P450 1A2 (CYP1A2, Homo sapiens, UniProt P05177); substrate; recombinant enzyme; 100 nM, 1 h).
With `CC[C@H](C)[C@H](NC(=O)[C@H](CCCCN)NC(=O)[C@H](CCCCN)NC(=O)[C@H](Cc1ccccc1)NC(=O)[C@H](Cc1ccccc1)NC(=O)[C@H](CCCCN)NC(=O)[C@H](CCCCN)NC(=O)[C@H](Cc1ccccc1)NC(=O)[C@H](CCCNC(=N)N)NC(=O)[C@@H](N)CCCCN)C(=O)N[C@@H](CCCCN)C(=O)N[C@@H](CCCCN)C(=O)N[C@@H](CO)C(=O)N[C@H](C(=O)N[C@@H](CCCCN)C(=O)N[C@@H](CCCCN)C(=O)N[C@@H](CCCNC(=N)N)C(=O)N[C@H](C(=O)N[C@@H](CCCCN)C(=O)N[C@@H](CCCCN)C(=O)N[C@@H](CC(C)C)C(=O)N[C@@H](Cc1ccccc1)C(=O)N[C@@H](CCCCN)C(=O)N[C@@H](CCCCN)C(=O)N1CCC[C@H]1C(=O)N[C@@H](CCCNC(=N)N)C(=O)N[C@H](C(=O)N[C@H](C(=O)N1CCC[C@H]1C(=O)N[C@H](C(=O)N[C@@H](CO)C(=O)N[C@H](C(=O)N1CCC[C@H]1C(=O)N[C@@H](Cc1ccccc1)C(=O)O)[C@@H](C)CC)[C@@H](C)CC)[C@@H](C)CC)C(C)C)C(C)C)C(C)C` the MIC was 8 µg/mL (≈ 1.9 µM) (Escherichia coli; MIC after serum incubation; E24; 1 h, 37 °C, with: 25% mouse serum).
For `O=C1NC2(CC2)COc2ncc(F)cc2[C@H]2COCCN2c2ccn3ncc1c3n2`, the basophil percentage was 0.06 ± 0.05% (Sprague-Dawley rats, female, blood; oral, 20 mg/kg/day, end of treatment, 4-week subacute toxicity).
`COc1ccc(-n2cc(C(=O)N3C[C@]4(OC(=O)c5ccccc5NC(C)=O)CC[C@H](OC)[C@@]56[C@@H]4C[C@@H]([C@@H]35)[C@@]3(O)C[C@H](OC)[C@H]4C[C@@H]6[C@]3(O)[C@H]4OC)nn2)cc1` has a concentration of 13.8 ng/mL (Sprague-Dawley rat, plasma; intravenous, 2 mg/kg, 1 h).
For `CN1CC[C@]23c4c5ccc(O)c4O[C@H]2[C@H](O)CC[C@@]3(O)[C@H]1C5`, “log k amino protonation” read 10.2.
`Cc1ccc(NS(=O)(=O)c2c(C(=O)N3CCCCCC3)c(C)n(C)c2C)c(Cl)c1` gave a viability of 96.6% and 98.7% (HaCaT; 0.137 µM, 60 h).
`NC[C@]1(CC(=O)O)CC[C@@H]([18F])CC1` has an SUV of 0.25 (PET; rhesus monkey, brain; intravenous, 13 min, baseline scan, after decrease).
For `O=C1CC[C@H]2[C@H]3Cc4ccc(O)c5c4[C@@]2(CCN3CCc2ccccc2)[C@H]1O5`, “log k amino protonation” read 9.47 (phenolate protonated).

Repeated from above:
Under “log k protonation constant”, `Oc1ccc2c3c1O[C@H]1[C@@H](O)CC[C@H]4[C@@H](C2)N(CC2CCC2)CC[C@@]341` is recorded as 9.37 (phenolate site).
For `C[C@H]1[C@@H](OCc2cn(-c3cc4ccc(O)cc4oc3=O)nn2)O[C@@H]2O[C@@]3(C)CC[C@H]4[C@H](C)CC[C@@H]1[C@@]24OO3`, “uptake into parasites” read 28.2 ± 2 % stained cells (Plasmodium berghei; flow cytometry; infected mouse blood; 3 µM, 1 h).
